Results from different studies.
Numbers after ± are the reported error.
Chain of UniProt Q12809 (whole entry, looked up): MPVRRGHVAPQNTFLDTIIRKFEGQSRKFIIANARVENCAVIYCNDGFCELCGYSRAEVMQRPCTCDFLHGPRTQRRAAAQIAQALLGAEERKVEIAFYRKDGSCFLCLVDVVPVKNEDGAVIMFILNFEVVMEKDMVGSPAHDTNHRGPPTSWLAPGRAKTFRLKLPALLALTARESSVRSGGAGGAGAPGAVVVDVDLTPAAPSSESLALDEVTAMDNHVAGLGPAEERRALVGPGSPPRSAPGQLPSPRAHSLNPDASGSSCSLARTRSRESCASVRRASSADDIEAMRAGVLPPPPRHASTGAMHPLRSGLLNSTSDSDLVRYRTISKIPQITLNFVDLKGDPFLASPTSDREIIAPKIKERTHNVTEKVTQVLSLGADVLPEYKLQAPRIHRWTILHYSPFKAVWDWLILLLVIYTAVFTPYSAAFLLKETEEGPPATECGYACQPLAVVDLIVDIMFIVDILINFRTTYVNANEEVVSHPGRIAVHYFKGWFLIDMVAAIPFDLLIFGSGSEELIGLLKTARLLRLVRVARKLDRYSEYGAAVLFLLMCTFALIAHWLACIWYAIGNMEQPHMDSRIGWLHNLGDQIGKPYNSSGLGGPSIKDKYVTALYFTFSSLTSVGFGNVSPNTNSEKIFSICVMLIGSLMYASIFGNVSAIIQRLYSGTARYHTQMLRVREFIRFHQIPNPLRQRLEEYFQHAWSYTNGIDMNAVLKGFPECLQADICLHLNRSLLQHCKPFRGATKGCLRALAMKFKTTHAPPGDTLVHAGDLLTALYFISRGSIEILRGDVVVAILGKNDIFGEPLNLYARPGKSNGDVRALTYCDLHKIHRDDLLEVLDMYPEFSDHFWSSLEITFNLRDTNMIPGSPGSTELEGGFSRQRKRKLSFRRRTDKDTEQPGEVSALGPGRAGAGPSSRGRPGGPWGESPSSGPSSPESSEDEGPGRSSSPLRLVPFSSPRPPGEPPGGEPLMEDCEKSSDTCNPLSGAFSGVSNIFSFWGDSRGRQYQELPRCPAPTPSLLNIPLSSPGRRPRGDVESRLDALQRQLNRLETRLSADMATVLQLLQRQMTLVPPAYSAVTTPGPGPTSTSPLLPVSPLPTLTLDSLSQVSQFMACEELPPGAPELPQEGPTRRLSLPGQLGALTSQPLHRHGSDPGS

SMILES	tested on	test	system	conditions	quantity	value
CC[C@H](C)[C@H](NC(=O)[C@H](CO)NC(=O)[C@H](Cc1ccc(O)cc1)NC(=O)[C@H](CC(=O)O)NC(=O)[C@H](CO)NC(=O)[C@@H](NC(=O)[C@H](Cc1ccccc1)NC(=O)[C@@H](NC(=O)CNC(=O)[C@H](CCC(=O)O)NC(=O)[C@@H](C)NC(=O)[C@@H](N)Cc1ccc(O)cc1)[C@@H](C)O)[C@@H](C)CC)C(=O)N[C@@H](C)C(=O)N[C@@H](CCSC)C(=O)N[C@@H](CC(=O)O)C(=O)N[C@@H](CCCCN)C(=O)N[C@H](C(=O)N[C@@H](Cc1c[nH]cn1)C(=O)N[C@@H](CCC(N)=O)C(=O)N[C@@H](CCC(N)=O)C(=O)N[C@@H](CC(=O)O)C(=O)N[C@@H](Cc1ccccc1)C(=O)N[C@H](C(=O)N[C@@H](CC(N)=O)C(=O)N[C@@H](Cc1c[nH]c2ccccc12)C(=O)N[C@@H](CC(C)C)C(=O)N[C@@H](CC(C)C)C(=O)N[C@@H](C)C(=O)N[C@@H](CCC(N)=O)C(=O)N[C@@H](CCCCN)C(=O)N1CCC[C@H]1C(=O)N[C@@H](CO)C(=O)N[C@@H](CO)C(=O)NCC(=O)N[C@@H](C)C(=O)N1CCC[C@H]1C(=O)N1CCC[C@H]1C(=O)N1CCC[C@H]1C(=O)N[C@@H](CO)C(N)=O)C(C)C)[C@@H](C)CC			human plasma	5 h, 37 °C	metabolic stability	stable
CCCCCCCCCCCCCCCC(=O)N[C@@H](CCC(=O)NCCOCCOCCC(=O)NCCOCCOCCC(=O)NCCCC[C@H](NC(=O)[C@H](CC(=O)O)NC(=O)[C@H](CC(C)C)NC(=O)[C@H](Cc1ccc(O)cc1)NC(=O)[C@H](CCCCN)NC(=O)[C@H](CO)NC(=O)[C@H](Cc1ccc(O)cc1)NC(=O)[C@H](CC(=O)O)NC(=O)[C@H](CO)NC(=O)[C@@H](NC(=O)[C@H](Cc1ccccc1)NC(=O)[C@@H](NC(=O)CNC(=O)[C@H](CCC(N)=O)NC(=O)[C@@H](CO)NC(=O)[C@@H](N)Cc1c[nH]cn1)[C@@H](C)O)[C@@H](C)O)C(=O)N[C@@H](CCCNC(=N)N)C(=O)N[C@@H](CCCNC(=N)N)C(=O)N[C@@H](C)C(=O)N[C@@H](CCC(N)=O)C(=O)N[C@@H](CC(=O)O)C(=O)N[C@@H](Cc1ccccc1)C(=O)N[C@H](C(=O)N[C@@H](CCC(N)=O)C(=O)N[C@@H](Cc1c[nH]c2ccccc12)C(=O)N[C@@H](CC(C)C)C(=O)N[C@@H](CC(C)C)C(=O)N[C@@H](CC(N)=O)C(=O)N[C@H](C(=O)NCC(=O)NCC(=O)N1CCC[C@H]1C(=O)N[C@@H](CO)C(=O)N[C@@H](CO)C(=O)NCC(=O)N[C@@H](C)C(=O)N1CCC[C@H]1C(=O)N1CCC[C@H]1C(=O)N1CCC[C@H]1C(=O)N[C@@H](CO)C(N)=O)[C@@H](C)O)C(C)C)C(=O)O			rhesus monkey, plasma	subcutaneous, 20 µg/kg, single dose	AUC(0-t)	0.0755 µg·h/mL
O=c1cc(-c2ccccc2)oc2c(Br)c(O)c(O)c(O)c12	chikungunya virus		C57BL/6 mouse, CHIKV-infected, plasma	oral, 250 mg/kg twice daily, 12 h after dose 5	trough concentration	2190 ± 1440 ng/mL
CC[C@H](C)[C@H](NC(=O)[C@H](CCCN)NC(=O)[C@H](CC(=O)O)NC(=O)[C@H](CC(C)C)NC(=O)C(C)(CC(C)C)NC(=O)[C@@H](NC(=O)[C@H](CO)NC(=O)[C@H](Cc1ccc(O)cc1)NC(=O)[C@H](CC(=O)O)NC(=O)[C@H](CO)NC(=O)[C@@H](NC(=O)[C@H](Cc1ccccc1)NC(=O)[C@@H](NC(=O)CNC(=O)[C@H](CCC(=O)O)NC(=O)C(C)(C)NC(=O)[C@@H](N)Cc1ccc(O)cc1)[C@@H](C)O)[C@@H](C)CC)[C@@H](C)CC)C(=O)N[C@@H](Cc1c[nH]cn1)C(=O)N[C@@H](CCC(N)=O)C(=O)NC(C)(C)C(=O)N[C@@H](CC(=O)O)C(=O)N[C@@H](Cc1ccccc1)C(=O)N[C@H](C(=O)N[C@@H](CCC(=O)O)C(=O)N[C@@H](Cc1ccc(O)cc1)C(=O)N[C@@H](CCCCNC(=O)COCCOCCNC(=O)COCCOCCNC(=O)CC[C@H](NC(=O)CCCCCCCCCCCCCCCCCCC(=O)O)C(=O)O)C(=O)N[C@@H](CC(C)C)C(=O)N[C@@H](CCC(=O)O)C(=O)NCC(=O)NCC(=O)N1CCC[C@H]1C(=O)N[C@@H](CO)C(=O)N[C@@H](CO)C(=O)NCC(=O)N[C@@H](C)C(=O)N1CCC[C@H]1C(=O)N1CCC[C@H]1C(=O)N1CCC[C@H]1C(=O)N[C@@H](CO)C(N)=O)C(C)C (some centres unmarked)			human, type 2 diabetes	subcutaneous, 25 mg single dose, geometric mean	AUC(0-inf)	1200 µg·h/mL
CCc1ccccc1NC(=S)N/N=C/c1ccc(O)cc1O	MCF7			25 µM	viability	> 98%
CCCCCCCCCCCCCCCC(=O)N[C@@H](CCC(=O)NCCCC[C@H](NC(=O)[C@H](CC(=O)O)NC(=O)[C@H](CO)NC(=O)[C@@H](NC(=O)[C@H](Cc1ccccc1)NC(=O)[C@@H](NC(=O)CNC(=O)[C@H](CCC(N)=O)NC(=O)[C@H](C)NC(=O)[C@@H](Cc1ccc(O)cc1)NC(C)=O)[C@@H](C)O)[C@@H](C)O)C(=O)N[C@@H](CO)C(=O)N[C@@H](CCCCN)C(=O)N[C@@H](Cc1ccc(O)cc1)C(=O)N[C@@H](CC(C)C)C(=O)N[C@@H](CC(=O)O)C(=O)N[C@@H](CCC(=O)O)C(=O)N[C@@H](CCCNC(=N)N)C(=O)N[C@@H](C)C(=O)N[C@@H](C)C(=O)N[C@@H](CCC(N)=O)C(=O)N[C@@H](CC(=O)O)C(=O)N[C@@H](Cc1ccccc1)C(=O)N[C@H](C(=O)N[C@@H](CCC(N)=O)C(=O)N[C@@H](Cc1c[nH]c2ccccc12)C(=O)N[C@@H](CC(C)C)C(=O)N[C@@H](CC(C)C)C(=O)N[C@@H](CCC(=O)O)C(=O)NCC(=O)NCC(=O)N1CCC[C@H]1C(=O)N[C@@H](CO)C(=O)N[C@@H](CO)C(=O)NCC(=O)N[C@@H](C)C(=O)N1CCC[C@H]1C(=O)N1CCC[C@H]1C(=O)N1CCC[C@H]1C(=O)N[C@@H](CO)C(N)=O)C(C)C)C(=O)O		multiple ascending dose	human	25 to 150 µg once daily, geometric mean range	half-life at steady state	17.5 to 25.6 h
CC[C@H](C)[C@H](NC(=O)[C@H](CCCCN)NC(=O)[C@H](CCCCN)NC(=O)[C@H](CC(C)C)NC(=O)[C@H](Cc1c[nH]c2ccccc12)NC(=O)CN)C(=O)NCC(=O)N[C@@H](CCCCN)C(=O)N[C@@H](CCCCN)C(=O)N[C@H](C(=O)N[C@@H](CCC(=O)O)C(=O)N[C@@H](CCCNC(=N)N)C(=O)N[C@H](C(=O)NCC(=O)N[C@@H](CCC(N)=O)C(=O)N[C@@H](Cc1c[nH]cn1)C(=O)N[C@H](C(=O)N[C@@H](CCCNC(=N)N)C(=O)N[C@@H](CC(=O)O)C(=O)N[C@@H](C)C(=O)N[C@H](C(=O)N[C@H](C(=O)N[C@@H](CCC(N)=O)C(=O)N[C@H](C(=O)N[C@H](C(=O)NCC(=O)N[C@H](C(=O)N[C@@H](C)C(=O)N[C@@H](CCC(N)=O)C(=O)N[C@@H](CCC(N)=O)C(=O)N[C@@H](C)C(=O)N[C@@H](C)C(=O)N[C@@H](CC(N)=O)C(=O)N[C@H](C(=O)N[C@@H](C)C(=O)N[C@@H](C)C(=O)N[C@H](C(=O)N[C@@H](CC(C)C)C(=O)N[C@@H](CCCCN)C(N)=O)[C@@H](C)O)C(C)C)C(C)C)[C@@H](C)CC)[C@@H](C)O)[C@@H](C)CC)[C@@H](C)O)[C@@H](C)O)C(C)C)[C@@H](C)CC	Voltage-gated inwardly rectifying potassium channel KCNH2 (KCNH2, Homo sapiens, UniProt Q12809)	potassium current, automated patch clamp			highest inactive concentration	> 30 µM
CC[C@H](C)[C@@H]1NC(=O)[C@H](CCCNC(=N)N)NC(=O)[C@H](CO)NC(=O)[C@H](CCC(=O)O)NC(=O)[C@H](CC(=O)O)NC(=O)CNC(=O)CNC(=O)[C@H]([C@@H](C)O)NC(=O)[C@H](Cc2ccccc2)NC(=O)[C@H](CO)NC(=O)[C@H]([C@@H](C)O)NC(=O)[C@H](C)NC(=O)[C@@H]2CSSC[C@@H](C(=O)N[C@@H](Cc3ccc(O)cc3)C(=O)N[C@@H](Cc3ccccc3)C(=O)N[C@H](C(=O)N[C@H](C(=O)NCC(=O)O)[C@@H](C)O)[C@@H](C)O)NC(=O)[C@H]([C@@H](C)O)NC(=O)[C@H](CSSC[C@H](NC(=O)[C@H](CCC(=O)O)NC(=O)[C@H](CO)NC(=O)[C@H](CCCCN)NC(=O)[C@H](Cc3ccc(O)cc3)NC(=O)[C@@H]3CCCN3C(=O)[C@H](Cc3ccccc3)NC(=O)[C@H](CCCCN)NC(=O)[C@H](CCCNC(=N)N)NC(=O)[C@H](CCCCN)NC(=O)[C@H](CCCCN)NC(=O)[C@H](Cc3ccc(O)cc3)NC(=O)[C@@H]3CCCN3C(=O)[C@@H](NC(=O)[C@H](CC(=O)O)NC(=O)[C@H](CCCCN)NC(=O)[C@H](CCCCN)NC(=O)[C@@H](NC(=O)[C@@H](NC(=O)[C@@H](N)CCC(=O)O)C(C)C)[C@@H](C)CC)[C@@H](C)O)C(=O)N[C@@H](CC(C)C)C(=O)N[C@@H](CCCCN)C(=O)N[C@@H](C)C(=O)N2)NC(=O)[C@H](CCCCN)NC(=O)[C@H](Cc2ccccc2)NC(=O)[C@H](Cc2ccccc2)NC(=O)CNC(=O)[C@@H]2CCCN2C(=O)[C@H](CCCCN)NC(=O)CNC(=O)[C@H](CCC(=O)O)NC(=O)[C@H](CCC(N)=O)NC1=O			C57BL/6J mouse	intrahippocampal, 1 µL of 20 µM	time to death	10 to 20 min

For quick reference, copied from above:
SMILES	tested on	test	system	conditions	quantity	value
CCc1ccccc1NC(=S)N/N=C/c1ccc(O)cc1O	MCF7			25 µM	viability	> 98%
